Results collected from several papers.
A part holds a random share of what one study measured. Substitutions count along the parent as printed.

Block 1 — technique: protein binding microarray; form: double-stranded DNA, one strand shown; matrix: in vitro; tested at: not given; relative to: not given; direction: higher = stronger binding; measurement: E-score
Target: Histone acetyltransferase KAT6A, both winged helices, GST fusion (KAT6A, Homo sapiens, UniProt Q92794, residues 1-181)
Notes: 8-mer, flanks averaged, mean of 2 arrays, mostly near background
Construct (chain): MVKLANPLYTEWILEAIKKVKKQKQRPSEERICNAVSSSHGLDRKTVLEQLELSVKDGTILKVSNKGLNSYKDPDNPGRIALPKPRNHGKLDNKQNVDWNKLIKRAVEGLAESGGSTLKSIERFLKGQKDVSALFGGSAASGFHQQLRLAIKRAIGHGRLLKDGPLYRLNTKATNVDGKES
Oligonucleotide = GGGTCTCA; result = 0.0164
Oligonucleotide = GATTGGTA; result = -0.0975
Oligonucleotide = GTGCAGTA; result = 0.0329
Oligonucleotide = ACTGTGGC; result = -0.169
Oligonucleotide = AAGGATCC; result = -0.0898
Oligonucleotide = CTAGCCAC; result = -0.0956
Oligonucleotide = CCAGGTGA; result = -0.216
Oligonucleotide = ATCATCGC; result = 0.11
Oligonucleotide = AGGCTTGC; result = -0.113
Oligonucleotide = CGCCATTC; result = 0.0313
Oligonucleotide = ATGATATG; result = 0.0688
Oligonucleotide = ACCTAGGG; result = -0.105
Oligonucleotide = AAGACATC; result = -0.08
Oligonucleotide = AGCATTGA; result = -0.188
Oligonucleotide = CTGTATAC; result = -0.0662
Oligonucleotide = GCTAACGA; result = -0.0235
Oligonucleotide = CGCTCAAG; result = 0.211
Oligonucleotide = GTTGTCGA; result = -0.132

Block 2 — target: CCNB1, cyclin fold, Cln2 fusion (human); technique: yeast growth competition, sequencing; matrix: yeast; notes: weak parent motif; relative to: not given; direction: higher = stronger binding; measurement: normalised enrichment score
Parent: SAMHD1 docking peptide (human); ASKSRVQLFKDDP
Change = ASKSRYQLFKDDP [V6Y]; result = 0.143
Change = ASKSRVQLFKTDP [D11T]; result = 0.487
Change = ASKSRVQVFKDDP [L8V]; result = 0.0814
Change = ASKSRVQLFKNDP [D11N]; result = 0.229
Change = ASKHRVQLFKDDP [S4H]; result = 0.0526
Change = ASKSRVQLFKDNP [D12N]; result = 0.17
Change = ASKSFVQLFKDDP [R5F]; result = 0.127
Change = ASKFRVQLFKDDP [S4F]; result = 0.694
Change = ASKSRVKLFKDDP [Q7K]; result = 0.397
Change = ASGSRVQLFKDDP [K3G]; result = 0.303
Change = ASKSRVQLWKDDP [F9W]; result = 0.439
Change = ASKSRVPLFKDDP [Q7P]; result = 0.257
Change = ASKSRVQLFFDDP [K10F]; result = -0.112
Change = ASKSRVQLMKDDP [F9M]; result = 0.524
Change = ASKSRVDLFKDDP [Q7D]; result = -0.268
Change = ASKSRVQLFEDDP [K10E]; result = 0.231
Change = ASKSRVNLFKDDP [Q7N]; result = 0.437
Change = ASKSRVQLFKDFP [D12F]; result = -0.114
Change = ASSSRVQLFKDDP [K3S]; result = 0.102
Change = AFKSRVQLFKDDP [S2F]; result = 0.329
Change = ASKSRVQLEKDDP [F9E]; result = 0.233
Change = ASKVRVQLFKDDP [S4V]; result = 2.82
Change = ASKSMVQLFKDDP [R5M]; result = -0.0933
Change = ASLSRVQLFKDDP [K3L]; result = 0.396
Change = ASKSRCQLFKDDP [V6C]; result = 0.168

Block 3 — technique: RNA Bind-n-Seq; form: RNA; matrix: in vitro; tested at: 365 nM; relative to: no-protein control; direction: higher = stronger binding; measurement: RBNS enrichment (R)
Target: RNA binding protein fox-1 homolog 2, RRM domain, GST-SBP tag (RBFOX2, Homo sapiens, UniProt O43251-10, residues 100-194)
Notes: natural RNA segment, single round, ends assumed
Constant ends, left off below: GGGAGUUCUACAGUCCGACGAUC … UGGAAUUCUCGGGUGCCAA
Construct (chain): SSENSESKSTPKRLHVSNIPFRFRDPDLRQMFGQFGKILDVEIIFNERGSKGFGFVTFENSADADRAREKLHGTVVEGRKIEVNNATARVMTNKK
Oligonucleotide = CUCCUCCUUUACAAGAGCUUUCCUCUCCUCUCUCUUGCUCUCAGAGACCUAUAAAUCCAACCAGUUACCCUGCAAGUCAGCCCCAUCUGCUGUUCCUUGGUCUCUAAUCA; result = 0.817
Oligonucleotide = GUGCUAUGGAAACAAUGAAGAGAAACGGGGAUUUCAGAAGAAAAUUGUAACCAAAUUCAUAUACUUUGUAUAAGUUUUUGAUAUCAUGAUCACAGGUGAUUCACACGUAC; result = 0.509
Oligonucleotide = AGAUUCUAAUGGAUAGGAUUUAGAGAUGUGUUCUGUGUUCUUGACCAGUGAAGUAUGCUCUUGGGUCUUUGGCAAAGCUGGAAAGAGAAAGGGCCUCCUUGUUCUUUCCC; result = 0.995
Oligonucleotide = UUUUAUUUAUUUAAUUUUCUUGGUUUGGAGAUGUCAGUCCCAAACACCAGAGUCUGUACUUUUCUAUAACACAGCUCAGAUUAAGGUAGGGCAUAUGCCAAGGAGGUUCU; result = 0.419
Oligonucleotide = UCUCCUAGCUCUGGAGGUGCUGCUCUAGGGCAGGGAAUUAUGGGAGAAGUGGGGGCAGCCCAGGCGGUUUCACGCCCCACACUUUGUACAGACCGAGAGGCCAGUUGAUC; result = 0.323
Oligonucleotide = GAAAUCUCUUUAGAAGAAACUUUAUGAGUUUAUAAAUGAGAAAACCUUUCAGCAGUUAUGUAGCCUGUAUUCAAUGGUAGGAAAUUACAGGAAAAAAAGUUCUAAGCUUC; result = 0.801
Oligonucleotide = CCAUGAUAGUACCAGGGACAGGUUUUAAUAGAAAUUUAAGCUAUUUGUAUUACGAACAUAGGAGUGUCCACAUGUUGUUGUAACUCUGUCCUGCAAGAGCAGGUAUUCCA; result = 0.629
Oligonucleotide = AGAUUUACAGCUUAUGCUAGGCCCACCCAACUGGACAAGGCUGUCUCCUGUCUUCUACUACCCUGGCUCAGCCCCCACCUCUGCCCCUGAAAUGCGUGCUCCCACCAAGG; result = 1.28
Oligonucleotide = AAUUCUUCUAUCCUCUUUCCCUCUUGCAUUAACCUUUGCUGAUCCUCAGGGACCACUCCCCCAGCACUUUUGUGUUUGGGUGAGGGAUGUUGGACAGAGCCCAUUUUUAU; result = 0.326
Oligonucleotide = CUUGACCGAAAGUUACAAGGACCCCAACCCCUUUGUCCUCUCUACCCACAGAUGGCCCUGGGAAUCAAUUCCUCAGGAAUUGCCCUCAAGAACUCUGCUUCUUGCUUUGC; result = 0.399
Oligonucleotide = UGAGUAUUAGAGAGCUUGUCUUUCAAGGCAGGUUCCUGGGGCUUCAGGGCUAGGAGGGAGGAGCCUGCCCUUUUAACAGAACCCCAGUCACAUGCGGCUCAAGUCACUCA; result = 0.527
Oligonucleotide = GGGAGGUCUGGAUGGAUCUGUGUAGGAGUUCCCUGUAGAUAAAUUACUGAUCCCCCAUCUACUAUCCCCAGUAUGUAAUGGCUGAAUUAAUAUGUAAUCAACUGCAUUGU; result = 0.509

Block 4 — technique: RNAcompete; form: RNA; matrix: in vitro; tested at: 20 nM; notes: 7-mer, probes averaged, single round; relative to: mean of 7-mers; direction: higher = stronger binding; measurement: 7-mer Z-score
Target: PABPC1L2, full length, GST fusion (mouse, UniProt A0ABA7IW68)
Residues (chain): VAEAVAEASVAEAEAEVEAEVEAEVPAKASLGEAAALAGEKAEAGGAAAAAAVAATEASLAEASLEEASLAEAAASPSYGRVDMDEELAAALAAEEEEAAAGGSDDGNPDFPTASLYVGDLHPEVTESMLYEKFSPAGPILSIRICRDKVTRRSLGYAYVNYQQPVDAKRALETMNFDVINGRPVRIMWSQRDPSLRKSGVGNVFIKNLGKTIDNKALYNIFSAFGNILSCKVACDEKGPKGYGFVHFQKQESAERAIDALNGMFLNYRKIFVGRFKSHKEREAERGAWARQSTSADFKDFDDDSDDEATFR
Oligonucleotide = GAUGAUG; result = -0.2
Oligonucleotide = AUAUUCA; result = -0.0554
Oligonucleotide = GAAUGAC; result = -0.113
Oligonucleotide = AUUAAGU; result = -0.0246
Oligonucleotide = GUAGCCC; result = -0.289
Oligonucleotide = UGUUGUG; result = -0.267
Oligonucleotide = GUCGAUC; result = -0.193
Oligonucleotide = GUCAACA; result = -0.0881
Oligonucleotide = ACUACUG; result = -0.151
Oligonucleotide = CUGUACA; result = -0.0699
Oligonucleotide = AGUAUUC; result = -0.244
Oligonucleotide = GGGUUUU; result = -0.151
Oligonucleotide = CAAGGUA; result = 0.066
Oligonucleotide = GCAACGU; result = -0.171
Oligonucleotide = GUACGGG; result = 0.0623
Oligonucleotide = AGGAAGA; result = 0.2
Oligonucleotide = AACUUGU; result = -0.168
Oligonucleotide = AAACCUU; result = 0.16
Oligonucleotide = AACGGAA; result = 0.53
Oligonucleotide = UCCGUAU; result = -0.393

Block 5 — technique: universal PBM; form: double-stranded DNA, one strand shown; matrix: in vitro; tested at: 600 nM; direction: higher = stronger binding; measurement: E-score
Target: Sal-like protein 4, full length isoform A (SALL4, Homo sapiens, UniProt Q9UJQ4, residues 1-1053)
UniProt Q9UJQ4, sequence (whole entry, looked up): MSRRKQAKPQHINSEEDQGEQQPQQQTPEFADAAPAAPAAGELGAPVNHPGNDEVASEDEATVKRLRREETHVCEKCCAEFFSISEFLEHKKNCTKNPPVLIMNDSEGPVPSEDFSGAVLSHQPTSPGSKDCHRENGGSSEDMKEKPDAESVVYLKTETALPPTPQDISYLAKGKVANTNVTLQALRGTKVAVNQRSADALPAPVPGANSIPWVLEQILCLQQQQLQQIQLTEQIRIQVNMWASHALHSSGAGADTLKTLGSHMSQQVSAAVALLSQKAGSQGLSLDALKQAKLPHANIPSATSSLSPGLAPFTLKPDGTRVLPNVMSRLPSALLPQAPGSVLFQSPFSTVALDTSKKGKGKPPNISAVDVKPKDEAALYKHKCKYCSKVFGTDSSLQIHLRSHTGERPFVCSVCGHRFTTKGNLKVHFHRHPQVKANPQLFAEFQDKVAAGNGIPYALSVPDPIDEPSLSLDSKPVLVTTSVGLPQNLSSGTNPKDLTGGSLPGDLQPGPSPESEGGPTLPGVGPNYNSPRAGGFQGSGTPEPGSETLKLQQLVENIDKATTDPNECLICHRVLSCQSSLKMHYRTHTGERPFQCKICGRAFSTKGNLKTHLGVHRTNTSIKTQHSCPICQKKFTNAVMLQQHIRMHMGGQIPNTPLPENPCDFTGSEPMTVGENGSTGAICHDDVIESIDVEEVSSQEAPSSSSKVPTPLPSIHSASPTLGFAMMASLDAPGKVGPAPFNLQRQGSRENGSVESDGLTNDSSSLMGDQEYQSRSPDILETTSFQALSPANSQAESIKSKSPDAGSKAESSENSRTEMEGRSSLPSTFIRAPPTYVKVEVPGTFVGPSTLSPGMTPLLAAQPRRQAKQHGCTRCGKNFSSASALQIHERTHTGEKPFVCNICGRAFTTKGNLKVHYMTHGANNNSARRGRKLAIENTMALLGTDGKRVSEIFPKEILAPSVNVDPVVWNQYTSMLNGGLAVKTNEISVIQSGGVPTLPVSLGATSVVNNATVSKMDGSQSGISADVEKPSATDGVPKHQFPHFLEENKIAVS
Notes: 8-mer, flanks averaged, mean of replicates
Oligonucleotide = GCTCTATA; result = 0.121
Oligonucleotide = GTGTCTTA; result = 0.13
Oligonucleotide = CCTGGGAG; result = -0.278
Oligonucleotide = ATTAGAGA; result = 0.168
Oligonucleotide = AAGGTAAT; result = 0.165
Oligonucleotide = CGTCTAAA; result = -0.00836
Oligonucleotide = CCCCATAC; result = -0.131
Oligonucleotide = ACTTTCAC; result = 0.209
Oligonucleotide = ATCACTGC; result = -0.0232
Oligonucleotide = AGGTCTTA; result = 0.0264
Oligonucleotide = ATTTTCTG; result = 0.174
Oligonucleotide = GGCGCGCA; result = -0.0473
Oligonucleotide = ATTCTCTC; result = -0.0932
Oligonucleotide = AGTCGTCA; result = -0.0089
Oligonucleotide = AGACGTAG; result = 0.0222
Oligonucleotide = GAGCGCTC; result = -0.247
Oligonucleotide = AGGTCACA; result = -0.0785
Oligonucleotide = AGCATTCG; result = -0.0868

Block 6 — technique: RNA Bind-n-Seq; form: RNA; matrix: in vitro; tested at: 200 nM; notes: whole 134-nt RNA, ends assumed; together with: 150 mM LiCl; relative to: input library; direction: higher = stronger binding; measurement: log2 enrichment; library: 7-deaza-guanosine replaces G
Target: Ras GTPase-activating protein-binding protein 1, full length (G3BP1, Homo sapiens, UniProt Q13283)
UniProt Q13283, sequence (whole entry, looked up): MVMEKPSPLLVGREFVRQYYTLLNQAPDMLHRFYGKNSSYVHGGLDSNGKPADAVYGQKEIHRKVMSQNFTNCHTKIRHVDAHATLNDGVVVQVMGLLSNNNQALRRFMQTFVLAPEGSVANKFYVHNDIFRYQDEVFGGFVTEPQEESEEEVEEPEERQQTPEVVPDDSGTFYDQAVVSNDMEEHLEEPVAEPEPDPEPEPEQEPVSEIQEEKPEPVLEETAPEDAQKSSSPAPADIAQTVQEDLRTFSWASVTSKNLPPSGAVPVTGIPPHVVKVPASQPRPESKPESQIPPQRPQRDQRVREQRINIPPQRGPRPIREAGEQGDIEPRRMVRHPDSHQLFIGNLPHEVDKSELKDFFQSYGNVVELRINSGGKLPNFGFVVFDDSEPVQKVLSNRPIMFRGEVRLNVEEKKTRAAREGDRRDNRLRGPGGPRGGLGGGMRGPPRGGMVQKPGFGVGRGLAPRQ
Constant ends, left off below: GGGAGUUCUACAGUCCGACGAUC … UGGAAUUCUCGGGUGUCAAGG
Oligonucleotide = AAGUCCUGUGCUACACAUCGUAUGUACCGAAUCAAAUUUUUAAAUUUAAACCCAAAAAAGUAUUAUGUUACGCCGUUCGGAUCUGCACUU; result = 0.266
Oligonucleotide = UGUGCUACACAUCGUAUGUACCGAAUCGGGGAAAAAGGGGUUUUUUUGGGGAAAAAAAGGGGAAAGUAUUAUGUUACGCCGUUCGGAUCU; result = 0.00511
Oligonucleotide = CCUCAAGUCCUGUGCUACACAUCGUAUGUACCGAAUCGGGGAGGGGAGGAGGGAAAGUAUUAUGUUACGCCGUUCGGAUCUGCACUUCCA; result = 0.732
Oligonucleotide = UCCUCAAGUCCUGUGCUACACAUCGUAUGUACCGAAUCGGAGGGAGGGAGGAAAGUAUUAUGUUACGCCGUUCGGAUCUGCACUUCCAGC; result = -0.907
Oligonucleotide = AGUCCUGUGCUACACAUCGUAUGUACCGAAUCAAACCCAAACCCCCAAAUUUUUAAAAAAGUAUUAUGUUACGCCGUUCGGAUCUGCACU; result = 1.19
Oligonucleotide = UUUCUAGCUGGACCAGUCCGGUACGCUCCGGGCCUCACCGAGGAAGUCCCACCCUGCAGGGGAACCGACUCUGGCCGGCCCUAACCCCUC; result = 0.417
Oligonucleotide = CCUGUGCUACACAUCGUAUGUACCGAAUCGGGGAAAAAAAGGAAAAAAAGGAAAAAAAGGGAAAGUAUUAUGUUACGCCGUUCGGAUCUG; result = 0.0229
Oligonucleotide = UCAAGUCCUGUGCUACACAUCGUAUGUACCGAAUCGGUUUUGGUUUUGGUUUUGGAAAGUAUUAUGUUACGCCGUUCGGAUCUGCACUUC; result = -0.736
Oligonucleotide = CAAGUCCUGUGCUACACAUCGUAUGUACCGAAUCGGUGGUUUUUUUGGUUUUUGGAAAGUAUUAUGUUACGCCGUUCGGAUCUGCACUUC; result = -0.502
Oligonucleotide = CUGUGCUACACAUCGUAUGUACCGAAUCGGGGAAAAAAAGGAAAAAAAGGGGAAAAAAAGGAAAGUAUUAUGUUACGCCGUUCGGAUCUG; result = 0.0215
Oligonucleotide = UAACUUUAGAGGAGGAUCUGAUGGAUAUGGCAGUGGACGUGGAUUUGGGGAUGGCUAUACUGGGUAUGGAGGAGGACCUGGAGGUGGCAA; result = -0.289

A few entries again (block 2):
Change = ASKSRVQLWKDDP [F9W]; result = 0.439
Change = ASKSRVPLFKDDP [Q7P]; result = 0.257
Change = ASKSRVQLFFDDP [K10F]; result = -0.112
Change = ASKSRVQLMKDDP [F9M]; result = 0.524
Change = ASKSRVDLFKDDP [Q7D]; result = -0.268
Change = ASKSRVQLFEDDP [K10E]; result = 0.231
Change = ASKSRVNLFKDDP [Q7N]; result = 0.437
Change = ASKSRVQLFKDFP [D12F]; result = -0.114
Change = ASSSRVQLFKDDP [K3S]; result = 0.102
Change = AFKSRVQLFKDDP [S2F]; result = 0.329
Change = ASKSRVQLEKDDP [F9E]; result = 0.233
